Measurements from different studies.
Each numbered part is a random draw from the data of one study; scales do not carry over between parts.

Series 1 — technique: protein binding microarray; molecule type: double-stranded DNA, one strand shown; sample: in vitro; concentration: not given; baseline: not given; reading: higher = stronger binding; endpoint: E-score
Target: Histone acetyltransferase KAT6A, winged helix 1, GST fusion (KAT6A, Homo sapiens, UniProt Q92794, residues 1-85)
Setting: 8-mer, flanks averaged, mean of 2 arrays, mostly near background
Target sequence (chain): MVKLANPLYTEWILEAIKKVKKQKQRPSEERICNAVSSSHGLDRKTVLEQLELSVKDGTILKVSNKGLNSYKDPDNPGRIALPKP
Sequence = AGTTATTA; value = -0.206
Sequence = GCATTACA; value = 0.0127
Sequence = GATAAATA; value = -0.0509
Sequence = CAACGCTC; value = -0.0919
Sequence = AGCCCATG; value = -0.149

Series 2 — technique: protein-binding microarray; molecule type: double-stranded DNA, one strand shown; sample: in vitro; concentration: 940 nM top; setting: 60-bp whole probe; together with: salmon DNA 0.4 mg/ml; baseline: random background probes; reading: higher = stronger binding; endpoint: fitted relative affinity
Target: Interferon regulatory factor 5, full length, phosphomimetic (IRF5, Homo sapiens, UniProt Q13568-2, residues 1-514, S451D/S453D/S456D/S462D)
Sequence = GCCTAGCACTTAGAACTGGGGTTTCGATGAGTGCTAGTCTTGATTCGCTTGACGCTGCTG; value = 3.89 z-score
Sequence = GCCTAGCACTTAGATTTCGGGTTTGGATTAGTGCTAGTCTTGATTCGCTTGACGCTGCTG; value = 1.29 z-score
Sequence = GCCTAGCACGTGTGCATCTATCTTAAATAGTGCTAGGTCTTGATTCGCTTGACGCTGCTG; value = -0.187 z-score

Series 3 — technique: aptamer microarray, sandwich; molecule type: DNA with 2'F-ANA; sample: in vitro; concentration: 200 nM; together with: Cy3 exosite-II aptamer, 400 nM; reading: higher = stronger binding; endpoint: mean fluorescence intensity
Target: Prothrombin, mature alpha-thrombin (F2, Homo sapiens, UniProt P00734)
Setting: whole 15-mer aptamer, many near background
Sequence = GGTTGGTGTGGTTGG (2'F-ANA at 1 2 3 4 8 11 13 14); value = 106 a.u.
Sequence = GGTTGGTGTGGTTGG (2'F-ANA at 1 3 4 7 8 9 11); value = 214 a.u.
Sequence = GGTTGGTGTGGTTGG (2'F-ANA at 1 2 3 7 8 10 11); value = 88.8 a.u.

Further values, each from its own experiment
Substance = PhoQ, residues 284 288 289 292 302 303 SSCCRF; target = PhoP, residues 12 14 15 18 19 SGWQI (Escherichia coli, UniProt P23836); test = Sort-seq, item: YFP reporter; test system = E. coli; conditions = PhoQ-PhoP variant library, together with: 10 µM Mg2+; scale = baseline: high Mg2+ state, higher = stronger signaling; endpoint = fold induction; value = 16.5
